Measured values pooled from the literature.
A part holds a random share of what one study measured. Positions count from the first letter of the parent shown.

Series 1
Target: Histone acetyltransferase KAT6A, both winged helices, GST fusion (KAT6A, Homo sapiens, UniProt Q92794, residues 1-181)
Technique: protein binding microarray
Molecule type: double-stranded DNA, one strand shown
Medium: in vitro
Concentration: not given
Notes: 8-mer, flanks averaged, mean of 2 arrays, mostly near background
Relative to: not given
Reading: higher = stronger binding
Measurement: E-score
Residues (chain): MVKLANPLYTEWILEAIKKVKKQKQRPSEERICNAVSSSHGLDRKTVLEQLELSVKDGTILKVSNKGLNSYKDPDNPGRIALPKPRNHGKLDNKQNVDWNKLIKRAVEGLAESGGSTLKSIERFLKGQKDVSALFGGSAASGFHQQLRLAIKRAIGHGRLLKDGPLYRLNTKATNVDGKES
GCAACCCA: -0.136
ACTGTCCC: -0.0605
AGCAGTAT: -0.171
ATGGAAAG: -0.086
AGAGTTTC: -0.153
CCGACAGG: 0.042
AGTCCCTC: -0.0676
CTAGAAAC: -0.168
CAAGTGTC: -0.0697
GTTGTCCA: -0.0681
CTATTTGC: -0.153
AGATAGTA: -0.0604
CGACCATC: -0.0839
ATGAGTCC: 0.0438
TAGTGTCA: 0.0436
AAAGAACT: -0.0491
CTGGATGC: -0.0137
ATATTACG: 0.0902
CCAGATAG: -0.322
GGATGCGA: 0.15
AGAGGTAG: -0.292
AACCGTAC: 0.179
ATACACGA: 7e-05
AGAAGGTA: -0.192
ACATGGAG: -0.0983

Series 2
Target: Ras GTPase-activating protein-binding protein 1, full length (G3BP1, Homo sapiens, UniProt Q13283)
UniProt Q13283, sequence (whole entry, looked up): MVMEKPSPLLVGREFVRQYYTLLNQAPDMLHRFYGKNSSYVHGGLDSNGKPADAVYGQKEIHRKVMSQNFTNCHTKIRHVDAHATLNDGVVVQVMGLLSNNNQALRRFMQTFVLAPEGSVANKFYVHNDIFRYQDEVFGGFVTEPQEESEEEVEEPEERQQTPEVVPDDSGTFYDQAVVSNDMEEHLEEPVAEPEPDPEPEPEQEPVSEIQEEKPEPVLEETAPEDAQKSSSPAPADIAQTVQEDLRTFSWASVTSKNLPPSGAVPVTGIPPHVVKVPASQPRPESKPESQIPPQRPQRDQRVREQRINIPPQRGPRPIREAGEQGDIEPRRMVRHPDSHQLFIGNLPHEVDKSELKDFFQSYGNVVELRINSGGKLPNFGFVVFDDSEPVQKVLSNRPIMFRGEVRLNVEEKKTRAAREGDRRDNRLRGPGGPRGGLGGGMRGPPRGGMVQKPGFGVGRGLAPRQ
Technique: RNA Bind-n-Seq
Molecule type: RNA
Medium: in vitro
Concentration: 200 nM
Notes: whole 134-nt RNA, ends assumed
Added: 150 mM LiCl
Relative to: input library
Reading: higher = stronger binding
Measurement: log2 enrichment
Each molecule: 7-deaza-guanosine replaces G
Constant ends, left off below: GGGAGUUCUACAGUCCGACGAUC … UGGAAUUCUCGGGUGUCAAGG
UAACUUUAGAGGAGGAUCUGAUGGAUAUGGCGGUGGACGUGGAUUUGGGGAUGGCUAUAAUGGGUAUGGAGGAGGACCUGGAGGUGGCAA: -0.083
CUCAAGUCCUGUGCUACACAUCGUAUGUACCGAAUCGGCCCGGGCCCGGCCCGGAAAGUAUUAUGUUACGCCGUUCGGAUCUGCACUUCC: 0.956
GCAGGAAGUAAAAACAAAUGGAAAUGCUUCGGAUAGUGGCAGGGGUGGGGGUUGCUAAGGAAAGGGUGGGAUGGGAGUGGGUACAGAGUU: -0.208
CGGCAGUAGCAGCAGCGCCGGGUCCCGUGCGGAGGUGCUCCUCGCAGAGUUGUUUCUCGAGCAGCGGCAGUUCUCACUACAGCGCCAGGA: -0.635
UGUGCUACACAUCGUAUGUACCGAAUCGGGGUUUUUUUGGGGUUUUUUUGGGUUUUUUUGGGAAAGUAUUAUGUUACGCCGUUCGGAUCU: 1.61
CUGUGCUACACAUCGUAUGUACCGAAUCGGGGCCCCCCCGGGCCCCCCCGGGCCCCCCCGGGAAAGUAUUAUGUUACGCCGUUCGGAUCU: 0.455
CCUCAAGUCCUGUGCUACACAUCGUAUGUACCGAAUCGGAGGGAGGGAGGGGAAAGUAUUAUGUUACGCCGUUCGGAUCUGCACUUCCAG: -0.35
ACCAUGCAGGUGGGCAUCUUUGGGAAGUGGGGCAAGGGGGGGAUAGGGAGGGGGGUAACACUUUGGGAACAGGUGGUCCCAGGUAAAUUC: 0.255
CAAGUCCUGUGCUACACAUCGUAUGUACCGAAUCGGGGCCGGGGCCGGGCCGGGGAAAGUAUUAUGUUACGCCGUUCGGAUCUGCACUUC: 0.384
GCAGGAAGUAAAAACAAAUGGAAAUGCUUCGGAUAGUGGCAGGGGUGGGGGUUGCUAAGGAAAGGGUGGGAUGGGAGUGGGAAAAGAGUU: 0.395
CUCAAGUCCUGUGCUACACAUCGUAUGUACCGAAUCGGAGGAGGAAAAAAAGGAAAGUAUUAUGUUACGCCGUUCGGAUCUGCACUUCCA: -0.816

Series 3
Target: RNA binding protein fox-1 homolog 2, RRM domain, GST-SBP tag (RBFOX2, Homo sapiens, UniProt O43251-10, residues 100-194)
Technique: RNA Bind-n-Seq
Molecule type: RNA
Medium: in vitro
Concentration: 365 nM
Notes: natural RNA segment, single round, ends assumed
Relative to: no-protein control
Reading: higher = stronger binding
Measurement: RBNS enrichment (R)
Constant ends, left off below: GGGAGUUCUACAGUCCGACGAUC … UGGAAUUCUCGGGUGCCAA
Construct (chain): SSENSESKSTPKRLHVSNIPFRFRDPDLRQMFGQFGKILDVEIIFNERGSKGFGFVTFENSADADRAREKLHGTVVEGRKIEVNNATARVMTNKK
UAGUUUGUAUCCCAGAGUAUACUGUGUUGAAAUAAGAAGAUGCAUAGCAGCUGAAUGCAUGCAUGACUUUGAGGGAAGUUAAGACUGGUUUUCUUUUCCCAUCUCUGCAC: 0.588
GACAAAACCCUGUCUCUACAAAAAUACAAAAAUUAGCUGGGUGUGGUGGGGCAUGCCUGUAGUCCUGGCUACUCAAGAGGCUGAGGUGGGAGGAUUGCUUGAGCGCAGGA: 2.15
AAAAAUUAACAUGUCACAAUGUAACGGAUGACCAUAUGCACAAUUCCAUGAAUUAAAUCUGUUUCCUGUGUUAGUCAGUAUUCUUAAAUAAAAUUUAUAAUUGAAACAUG: 0.443
UUUAAAACUGUAUUAAAUAUGCACAUUUUUGGUAUAGCUAUUAUCAUUUGUAUGUAUAUAUUGUAUAUACAUAUGAGUGUCUGUAUGUGUGUAUAGAUGGAUGGAUGUAA: 0.393
AAAUUUGUAGACUUCUAAAUAGAAUAAACACUUGCAGCAGAUGGCAUUGCCUACAUUUUUCCCUGAAGCUUUCGUAAUAAGUCAUCGUAAGUCGAGGUUUUUGGUGUGAC: 0.737
UGGUGCUAUCCAAUUCCCAUCACUAGGAGGUGGCUGAGCUUGAGGCUUGCCAGACACAGGAAUGGCCCCGAUUAUGUCACCAAUAUUGUCACAUGUGGGCCAAGAAUAGA: 0.431
AUUUUGCAGCAGUACCAUCCCACUGAUAUCACGGGCCCGCUCAACCUCUCAGAUCCCUCGGUCAGCACCGUGGUGUGAGGCCCCCGGAGGCGCCCACCUGCCCAGUUAGC: 0.217
UCUCUGUUCAGUGUGUCAGCUAUUUUGUGAAGAUGCUUAGAUGUAUAGUUUUGAUAACCACAGUUUUAAAUCUUUUAUCUGUGCAUAAUAAAAAGAUAUAUAUCAGUUAU: 1.32
AAAUAACACAGUUGGGUGUAGGCAUGGUAAAUCUGAGCAGUCCAUCCUUAGUAUGGUGGAAAGAUUUGUACCCUGACCCGCUCGAGUGGUGGUAGAUGUAUGUAAAUUAG: 0.839
AUUGGGUAAUAACUUCAAGAGGAAUGAGAAGUGACAAAAUUGAUUUAAAAUAUUGUUCUACUUAUAAAUAAAUGCUUGAUAUAAAAAAUUUUCUCCAUAAAGUUUGACAU: 1.27
CGGUCAGAUGGCCAUUUAUCAGCAUAUUUAUUUGUAUUUUCUCAGCAGAUAGUAAGGUACAACUGUGUUUUCUCAAUUGUCUCGAAGAACCAGAGUUCUUAAGUGGCCCA: 0.594
GGAGCAGCAGUUGACUCCUGGUUCCCUCCCUAUUUCAGCCUGGAUGUGGGGCUGGUGGAGAUGCCUCCACCCCAGGAGCCUCUGCAUAUGUGGUUCGUGGCCUUCUUCUC: 0.371

Series 4
Target: ABI1, truncated, D143A, DHFR fusion (Arabidopsis thaliana)
Technique: DHFR PCA, deep sequencing
Medium: yeast
Notes: methotrexate growth selection, single substitutions
Added: (+)-ABA 0.032 µM
Relative to: wild-type fitted maximum
Reading: higher = stronger binding
Measurement: relative binding score
Starting sequence: PYL1, truncated, DHFR fusion (Arabidopsis thaliana); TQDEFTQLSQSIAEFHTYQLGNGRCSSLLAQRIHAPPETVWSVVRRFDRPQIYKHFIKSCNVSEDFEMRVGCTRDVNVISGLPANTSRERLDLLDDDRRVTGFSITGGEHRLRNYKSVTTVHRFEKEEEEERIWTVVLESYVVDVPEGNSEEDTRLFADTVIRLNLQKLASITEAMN; partner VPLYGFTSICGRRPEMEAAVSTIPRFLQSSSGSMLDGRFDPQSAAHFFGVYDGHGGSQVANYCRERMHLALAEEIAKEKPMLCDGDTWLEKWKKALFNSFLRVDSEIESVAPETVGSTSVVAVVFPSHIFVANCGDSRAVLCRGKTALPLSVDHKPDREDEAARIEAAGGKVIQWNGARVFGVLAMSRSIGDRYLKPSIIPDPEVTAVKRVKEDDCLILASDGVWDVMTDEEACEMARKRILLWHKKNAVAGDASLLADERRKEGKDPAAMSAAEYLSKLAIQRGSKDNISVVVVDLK
V145I: 40.2%
Y115D: 3.63%
R69N: 7.47%
R113Y: 1.38%
V62E: 0.704%
K58D: -8.98%
P50T: -1.37%
M176Q: 7.14%
E129H: 27.6%
Q31Y: -2.88%
I133L: 23.7%
T17N: -1.57%
E139D: -7.32%
L82G: 44.4%
M68Y: -0.954%
T154R: -4.45%
F15S: 0.179%
F56A: -3.46%
S117M: 1.69%
T135F: -5.77%

Series 5
Target: CCNB1, cyclin fold, Cln2 fusion (human)
Technique: yeast growth competition, sequencing
Medium: yeast
Notes: weak parent motif
Relative to: not given
Reading: higher = stronger binding
Measurement: normalised enrichment score
Starting sequence: SLBP docking peptide (human); ARYKRKLLINDFG
R2P: 0.317
R2G: 0.38
K6C: 1.45
D11A: 1.16
N10M: 0.36
I9L: 0.846
K4L: 0.196
N10L: 1.3
L8N: 0.861
G13Y: 1.12
I9A: -0.304
I9C: 0.774
K4M: 0.496
A1Q: -0.195
R2Q: 1.43
R5D: 0.528
G13D: 0.267
L8D: 0.232

For quick reference, copied from above (series 4):
K58D: -8.98%
P50T: -1.37%
M176Q: 7.14%
E129H: 27.6%
Q31Y: -2.88%
I133L: 23.7%
